Results of several laboratories.
Each line is one published result; not all experiments were run side by side. ± gives the spread as reported.
HTR6: 5-hydroxytryptamine receptor 6 (HTR6, Homo sapiens, UniProt P50406)
Chain of UniProt P50406 (whole entry, looked up): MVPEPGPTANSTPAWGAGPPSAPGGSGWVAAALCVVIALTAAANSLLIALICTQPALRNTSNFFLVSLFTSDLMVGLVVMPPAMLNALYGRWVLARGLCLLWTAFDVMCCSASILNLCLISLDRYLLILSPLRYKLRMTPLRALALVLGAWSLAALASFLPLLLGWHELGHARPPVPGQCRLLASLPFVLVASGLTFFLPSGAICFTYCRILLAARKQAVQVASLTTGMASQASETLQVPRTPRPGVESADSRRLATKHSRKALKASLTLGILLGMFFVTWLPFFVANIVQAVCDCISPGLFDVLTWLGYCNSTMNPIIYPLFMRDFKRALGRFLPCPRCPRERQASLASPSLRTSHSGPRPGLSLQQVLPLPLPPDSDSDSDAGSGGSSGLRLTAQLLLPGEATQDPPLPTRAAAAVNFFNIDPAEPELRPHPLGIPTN
Oprd1: Delta-type opioid receptor (Oprd1, Rattus norvegicus, UniProt P33533)
Chain of UniProt P33533 (whole entry, looked up): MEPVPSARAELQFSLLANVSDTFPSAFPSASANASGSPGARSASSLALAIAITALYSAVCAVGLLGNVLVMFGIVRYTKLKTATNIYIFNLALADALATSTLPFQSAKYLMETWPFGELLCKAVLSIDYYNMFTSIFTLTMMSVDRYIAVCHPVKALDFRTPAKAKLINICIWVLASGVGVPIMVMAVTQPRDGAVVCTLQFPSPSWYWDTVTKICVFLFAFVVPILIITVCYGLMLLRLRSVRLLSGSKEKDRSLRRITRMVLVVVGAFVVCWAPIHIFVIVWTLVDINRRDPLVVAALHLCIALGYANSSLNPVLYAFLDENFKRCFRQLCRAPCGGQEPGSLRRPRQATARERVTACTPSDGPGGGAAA
RXFP3: Relaxin-3 receptor 1 (RXFP3, Homo sapiens, UniProt Q9NSD7)
Chain of UniProt Q9NSD7 (whole entry, looked up): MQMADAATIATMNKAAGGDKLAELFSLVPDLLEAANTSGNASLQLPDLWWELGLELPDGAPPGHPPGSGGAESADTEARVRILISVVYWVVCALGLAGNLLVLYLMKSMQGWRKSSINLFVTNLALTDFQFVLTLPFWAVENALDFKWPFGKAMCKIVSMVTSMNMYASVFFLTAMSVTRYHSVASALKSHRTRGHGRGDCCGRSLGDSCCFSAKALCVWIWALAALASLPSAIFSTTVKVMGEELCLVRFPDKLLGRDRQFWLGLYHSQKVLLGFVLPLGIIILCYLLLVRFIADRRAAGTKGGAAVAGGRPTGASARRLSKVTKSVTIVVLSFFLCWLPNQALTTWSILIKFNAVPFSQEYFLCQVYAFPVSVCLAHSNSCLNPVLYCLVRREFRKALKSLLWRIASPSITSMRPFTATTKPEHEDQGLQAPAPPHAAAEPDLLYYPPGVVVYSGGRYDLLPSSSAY
Chain of UniProt P05177 (whole entry, looked up): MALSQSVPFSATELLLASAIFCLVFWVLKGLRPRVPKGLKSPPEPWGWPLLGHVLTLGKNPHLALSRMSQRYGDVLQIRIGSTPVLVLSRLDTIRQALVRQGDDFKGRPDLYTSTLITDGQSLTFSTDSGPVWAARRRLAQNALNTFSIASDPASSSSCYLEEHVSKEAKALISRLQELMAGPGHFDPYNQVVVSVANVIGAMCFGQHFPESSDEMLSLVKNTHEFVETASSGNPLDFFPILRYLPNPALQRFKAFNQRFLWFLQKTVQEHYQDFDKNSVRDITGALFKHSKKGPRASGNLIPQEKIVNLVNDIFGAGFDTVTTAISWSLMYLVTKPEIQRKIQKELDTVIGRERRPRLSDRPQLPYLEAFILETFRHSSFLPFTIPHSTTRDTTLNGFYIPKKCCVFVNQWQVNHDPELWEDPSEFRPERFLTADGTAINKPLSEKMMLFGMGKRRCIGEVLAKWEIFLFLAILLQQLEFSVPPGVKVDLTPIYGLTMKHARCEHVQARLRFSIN
Chain of UniProt P09104 (whole entry, looked up): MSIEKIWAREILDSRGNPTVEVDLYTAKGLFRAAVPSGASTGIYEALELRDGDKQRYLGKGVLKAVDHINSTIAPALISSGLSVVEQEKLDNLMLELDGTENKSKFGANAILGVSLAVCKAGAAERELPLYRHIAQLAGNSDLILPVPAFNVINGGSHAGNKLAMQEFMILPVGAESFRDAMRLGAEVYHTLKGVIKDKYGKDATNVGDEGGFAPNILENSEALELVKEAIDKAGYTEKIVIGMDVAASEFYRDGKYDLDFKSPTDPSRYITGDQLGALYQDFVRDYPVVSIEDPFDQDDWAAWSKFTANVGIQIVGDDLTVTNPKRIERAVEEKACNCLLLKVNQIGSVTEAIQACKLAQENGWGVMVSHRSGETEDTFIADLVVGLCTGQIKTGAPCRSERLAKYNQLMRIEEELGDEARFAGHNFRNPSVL
Chain of UniProt O35795 (whole entry, looked up): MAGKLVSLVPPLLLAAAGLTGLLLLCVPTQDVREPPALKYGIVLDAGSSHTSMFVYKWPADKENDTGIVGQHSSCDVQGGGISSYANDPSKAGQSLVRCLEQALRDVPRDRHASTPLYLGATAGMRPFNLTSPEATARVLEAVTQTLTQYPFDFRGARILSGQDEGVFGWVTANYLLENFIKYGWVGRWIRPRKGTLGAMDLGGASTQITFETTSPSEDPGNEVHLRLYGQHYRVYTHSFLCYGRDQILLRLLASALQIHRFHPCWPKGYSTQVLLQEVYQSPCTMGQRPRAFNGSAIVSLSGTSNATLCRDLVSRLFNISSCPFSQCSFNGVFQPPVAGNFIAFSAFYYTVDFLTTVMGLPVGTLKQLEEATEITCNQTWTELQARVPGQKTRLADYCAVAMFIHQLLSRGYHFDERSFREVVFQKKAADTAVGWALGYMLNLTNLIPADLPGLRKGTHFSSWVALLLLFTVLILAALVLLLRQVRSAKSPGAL
Chain of UniProt P00761 (whole entry, looked up): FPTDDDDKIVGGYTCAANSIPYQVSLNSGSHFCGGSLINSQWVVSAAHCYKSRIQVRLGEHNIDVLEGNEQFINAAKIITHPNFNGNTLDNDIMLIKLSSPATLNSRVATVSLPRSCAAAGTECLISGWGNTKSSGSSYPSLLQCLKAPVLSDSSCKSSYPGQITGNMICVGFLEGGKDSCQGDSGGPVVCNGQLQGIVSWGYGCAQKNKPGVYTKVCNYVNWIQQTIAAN
Chain of UniProt P29322 (whole entry, looked up): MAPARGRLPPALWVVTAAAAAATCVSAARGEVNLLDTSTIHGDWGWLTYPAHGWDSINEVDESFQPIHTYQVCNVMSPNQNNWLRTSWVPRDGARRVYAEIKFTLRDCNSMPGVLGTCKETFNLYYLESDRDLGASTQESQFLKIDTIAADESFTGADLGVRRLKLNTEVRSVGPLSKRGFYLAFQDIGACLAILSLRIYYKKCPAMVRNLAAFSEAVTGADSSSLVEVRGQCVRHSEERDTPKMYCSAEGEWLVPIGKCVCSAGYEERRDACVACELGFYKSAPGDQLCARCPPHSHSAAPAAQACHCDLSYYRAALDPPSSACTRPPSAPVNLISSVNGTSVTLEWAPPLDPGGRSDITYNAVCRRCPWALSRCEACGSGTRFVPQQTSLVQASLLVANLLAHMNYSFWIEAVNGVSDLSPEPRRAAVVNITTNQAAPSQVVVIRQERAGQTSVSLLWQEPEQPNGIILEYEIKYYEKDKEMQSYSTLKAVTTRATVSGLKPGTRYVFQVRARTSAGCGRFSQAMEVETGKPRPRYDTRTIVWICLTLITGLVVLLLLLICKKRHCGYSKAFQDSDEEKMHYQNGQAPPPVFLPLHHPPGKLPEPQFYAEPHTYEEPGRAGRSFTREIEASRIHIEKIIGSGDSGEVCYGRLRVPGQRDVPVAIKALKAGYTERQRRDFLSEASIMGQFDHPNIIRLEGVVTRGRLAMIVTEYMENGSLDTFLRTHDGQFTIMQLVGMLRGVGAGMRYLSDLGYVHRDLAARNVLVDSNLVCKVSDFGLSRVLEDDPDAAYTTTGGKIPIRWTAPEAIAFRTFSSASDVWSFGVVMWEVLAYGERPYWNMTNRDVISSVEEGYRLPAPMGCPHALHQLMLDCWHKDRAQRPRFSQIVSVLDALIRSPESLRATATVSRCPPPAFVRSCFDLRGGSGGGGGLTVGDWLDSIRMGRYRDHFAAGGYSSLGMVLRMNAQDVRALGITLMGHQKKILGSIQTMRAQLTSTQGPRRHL
Chain of UniProt P35367 (whole entry, looked up): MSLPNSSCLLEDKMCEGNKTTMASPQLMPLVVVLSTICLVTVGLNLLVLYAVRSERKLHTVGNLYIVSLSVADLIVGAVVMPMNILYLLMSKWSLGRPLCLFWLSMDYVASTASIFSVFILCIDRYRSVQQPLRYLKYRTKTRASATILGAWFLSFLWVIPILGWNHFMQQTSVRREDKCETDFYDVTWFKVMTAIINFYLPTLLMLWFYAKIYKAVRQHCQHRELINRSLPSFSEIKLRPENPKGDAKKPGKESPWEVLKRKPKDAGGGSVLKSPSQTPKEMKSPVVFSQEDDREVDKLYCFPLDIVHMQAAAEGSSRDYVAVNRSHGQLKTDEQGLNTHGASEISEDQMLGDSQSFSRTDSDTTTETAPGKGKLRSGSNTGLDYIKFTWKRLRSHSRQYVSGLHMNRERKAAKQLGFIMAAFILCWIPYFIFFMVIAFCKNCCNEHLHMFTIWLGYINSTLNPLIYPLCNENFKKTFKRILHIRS
Chain of UniProt Q9GZQ6 (whole entry, looked up): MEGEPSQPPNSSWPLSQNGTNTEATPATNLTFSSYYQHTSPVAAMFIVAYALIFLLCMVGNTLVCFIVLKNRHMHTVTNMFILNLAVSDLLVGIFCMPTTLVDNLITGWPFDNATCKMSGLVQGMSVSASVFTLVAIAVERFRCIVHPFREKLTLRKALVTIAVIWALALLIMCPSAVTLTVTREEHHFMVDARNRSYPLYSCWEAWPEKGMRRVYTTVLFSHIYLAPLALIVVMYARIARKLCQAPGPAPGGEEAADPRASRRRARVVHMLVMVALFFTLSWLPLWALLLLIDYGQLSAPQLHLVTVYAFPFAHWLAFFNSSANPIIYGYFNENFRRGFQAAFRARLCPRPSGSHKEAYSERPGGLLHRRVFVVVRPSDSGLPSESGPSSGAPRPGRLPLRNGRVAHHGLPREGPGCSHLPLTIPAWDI

Compound	target or system	test	test system	conditions	how to read	quantity	value
CCN(CC)c1ncnc2c1ncn2[C@@H]1O[C@H](COP(=O)(O)OP(=O)(O)C(Br)(Br)P(=O)(O)O)[C@@H](O)[C@H]1O	Ectonucleoside triphosphate diphosphohydrolase 2 (Rattus norvegicus, UniProt O35795)	enzyme activity, inhibitor	–	–	–	Ki	≥ 1000 µM
CN1CCN(c2cn(C(=O)c3ccccc3)c3ccccc23)CC1	HTR6	ligand displacement, radioligand	–	cell membranes	–	Ki	0.187 µM
CNC(=O)C1CCN(c2ccccc2NC(=O)c2ccc(-c3cc(O)ccc3C)c(C)n2)CC1	EPHA8 (Homo sapiens, UniProt P29322)	cell-free assay, TR-FRET	–	–	–	Ki	0.0002 µM
N=C(N)NCCC[C@@H]1NC(=O)[C@H](CCCCNC(=O)CCOCCOCCOCCOCCNC(=O)CN2CCN(CC(=O)O)CCN(CC(=O)O)CCN(CC(=O)O)CC2)NC(=O)[C@@H](Cc2ccccc2)NC(=O)[C@H](CC(=O)O)NC(=O)CNC1=O [indium-111 labelled]	–	–	athymic nude mice, female, U-87 MG glioma xenograft, tumour and heart	intravenous, 24 h	baseline: tumour over heart	tumour to tissue ratio	9.91 ± 0.73
CCCCCCCCCCCCCCCC(=O)N[C@@H](CCC(=O)NCCCC[C@H](N)C(=O)NCC(=O)N[C@@H](CO)C(=O)NCC(=O)N[C@@H](CO)C(=O)NCC(=O)N[C@H]1CSSC[C@@H]2NC(=O)CNC(=O)[C@H](C)NC(=O)[C@H](CC(C)C)NC(=O)[C@@H]3CSSC[C@@H](C(=O)NCC(=O)O)NC(=O)[C@H](Cc4ccccc4)NC(=O)CNC(=O)[C@H](CC(N)=O)NC(=O)[C@@H]4CCCN4C(=O)CNC(=O)[C@H](CSSC[C@H](NC(=O)[C@H](CCCNC(=N)N)NC(=O)[C@H](CCSC)NC(=O)[C@H](CC(C)C)NC(=O)[C@H]([C@@H](C)CC)NC(=O)[C@H](CCCNC(=N)N)NC(=O)[C@@H]4CCCN4C1=O)C(=O)N[C@@H](CCCCN)C(=O)N[C@@H](CCC(N)=O)C(=O)N[C@@H](CC(=O)O)C(=O)N[C@@H](CO)C(=O)N[C@@H](CC(=O)O)C(=O)N3)NC(=O)[C@H](C(C)C)NC2=O)C(=O)O	Trypsin (Sus scrofa, UniProt P00761)	enzyme activity, inhibitor, fluorescence	–	with preincubation	–	Ki	0.000132 µM
CC[C@H](C)[C@H](NC(=O)[C@H](CS)NC(=O)[C@H](CCC(N)=O)NC(=O)[C@H](CC(C)C)NC(=O)[C@H](CCCCN)NC(=O)[C@H](CCCNC(=N)N)NC(=O)[C@H](C)NC(=O)[C@@H](NC(=O)[C@H](CCC(N)=O)NC(=O)[C@@H](NC(=O)[C@H](CCC(=O)O)NC(=O)[C@H](C)NC(=O)[C@H](CCC(N)=O)NC(=O)[C@@H](N)Cc1c[nH]cn1)C(C)C)[C@@H](C)CC)C(=O)N[C@@H](C)C(=O)N[C@@H](CC(=O)O)C(=O)N[C@@H](CCC(N)=O)C(=O)N[C@@H](Cc1ccccc1)C(=O)N[C@@H](Cc1c[nH]cn1)C(=O)N[C@@H](CCCNC(=N)N)C(=O)N[C@@H](CC(C)C)C(=O)N[C@@H](Cc1c[nH]cn1)C(=O)N[C@H](C(=O)N[C@@H](CCC(N)=O)C(=O)N[C@@H](CCC(N)=O)C(=O)O)C(C)C	BCL2L1 (Homo sapiens, UniProt Q07817)	ligand displacement, FP	–	–	–	Ki	0.023 µM
Cc1cc(O)cc(C)c1CC(N)C(=O)NC1CCNc2ccc(CN3CCc4ccccc4C3)cc21 (stereo not drawn)	Oprd1	ligand displacement, radioligand	–	cell membranes	–	Ki	0.0031 µM
[2H]C([2H])(C)N1CCN(C2=Nc3cc(Cl)ccc3Nc3ccccc32)CC1	HRH1 (Homo sapiens, UniProt P35367)	cell-free assay, radioligand	–	–	–	Ki	0.005 µM
CN[C@](C)(C[18F])C(=O)O	MDA-MB-468 tumour model	–	host not given, pancreas	2 h, tumour-bearing	–	tracer uptake	12 %ID/g
CC[C@@H]1NC(=O)[C@H](CCCNC(=N)N)NC(=O)[C@H](NC(=O)C(C)C)CCNC(=O)c2cc(F)c(c(F)c2)N=Nc2c(F)cc(cc2F)C(=O)NCCNC(=O)[C@@H](Cc2ccccc2)NC1=O	WDR5 (Homo sapiens, UniProt P61964)	ligand displacement, FP	–	–	–	Ki	0.008 µM
CC/C=C\C/C=C\C/C=C\C/C=C\C/C=C\C/C=C\CCC(=O)Nc1ccn(C2OC(CO)C(O)C2(F)F)c(=O)n1 (stereo not drawn)	NCI-H460	NCI60 screen	–	–	–	CC50	43.3 µM
CCCCCc1cc(O)c2c(c1)OC(C)(C)C1CCC(C)=CC21 (stereo not drawn)	–	–	rabbit, α-chymotrypsin glaucoma model	topical, 50 µL of 0.8% w/v, 2 h	baseline: baseline	intraocular pressure	91%
CC(=O)N[C@@H](CCCNC(=N)N)C(=O)N[C@@H](Cc1ccc(O)cc1)C(=O)N[C@@H](CCCNC(=N)NC(=O)NCCCCN)C(=O)N[C@H](CC(C)C)C(=O)N[C@@H](CCCNC(=N)N)C(=O)N[C@@H](Cc1ccc(O)cc1)C(N)=O	NPY4R (Homo sapiens, UniProt P50391)	ligand displacement, radioligand	–	–	–	Ki	0.248 µM
C[C@H](NC(=O)[C@H](CCC(N)=O)NC(=O)[C@H](C)NC(=O)[C@H](CCCCN)NC(=O)[C@H](CCC(N)=O)NC(=O)[C@H](C)NC(=O)[C@H](CCCCN)NC(=O)[C@H](CCC(N)=O)NC(=O)[C@H](C)NC(=O)[C@H](CCC(N)=O)NC(=O)[C@H](CCCCN)NC(=O)[C@H](C)NC(=O)[C@H](CCC(N)=O)NC(=O)[C@H](CCCCN)NC(=O)[C@H](C)NC(=O)[C@H](CCC(N)=O)NC(=O)[C@H](C)NC(=O)[C@H](CCCCN)NC(=O)[C@H](CCC(N)=O)NC(=O)[C@H](C)NC(=O)[C@H](CCCCN)NC(=O)[C@H](CO)NC(=O)[C@H](Cc1ccc(O)cc1)NC(=O)CNC(=O)CNC(=O)CN)C(=O)N[C@@H](CCCCN)C(=O)N[C@@H](CCC(N)=O)C(=O)N[C@@H](C)C(=O)N[C@@H](CCCCN)C(=O)N[C@@H](CCC(N)=O)C(=O)O	–	binding, SPR two-state model	rVλ6Wil fibrils	300 nM	–	Rmax	97.6 RU
CCCCCCCCC(=O)NCc1ccc(O)c(OC)c1	mAb 2-LD2	antibody binding, indirect competitive ELISA	–	added: coating antigen hapten 1-OVA	–	IC50	6.5 ng/mL
CSC[C@H]1CN(Cc2c[nH]c3c(N)ncnc23)C[C@@H]1O	MTA/SAH nucleosidase (Campylobacter jejuni subsp. jejuni, UniProt Z9IB28FKP7)	enzyme activity, inhibitor	–	slow-onset tight binding	–	Ki	0.0029 µM
CCC(=O)N[C@H]1c2nc(CCc3ccccc3)cn2[C@H](CO)[C@@H](O)[C@@H]1O	human lysosomal hexosaminidase A/B	–	–	–	–	Ki	0.0027 ± 0.0004 µM

Compound	target or system	test	test system	conditions	how to read	quantity	value
N=C(N)NCCC[C@@H]1NC(=O)[C@H](CCCCNC(=O)CC[C@H](NC(=O)CCOCCOCCOCCOCCNC(=O)CC[C@H](NC(=O)CN2CCN(CC(=O)O)CCN(CC(=O)O)CCN(CC(=O)O)CC2)C(=O)NCCOCCOCCOCCOCCC(=O)N[C@@H](CCC(=O)NCCCC[C@@H]2NC(=O)[C@@H](Cc3ccccc3)NC(=O)[C@H](CC(=O)O)NC(=O)CNC(=O)[C@H](CCCNC(=N)N)NC2=O)C(=O)NCCCC[C@@H]2NC(=O)[C@@H](Cc3ccccc3)NC(=O)[C@H](CC(=O)O)NC(=O)CNC(=O)[C@H](CCCNC(=N)N)NC2=O)C(=O)NCCCC[C@@H]2NC(=O)[C@@H](Cc3ccccc3)NC(=O)[C@H](CC(=O)O)NC(=O)CNC(=O)[C@H](CCCNC(=N)N)NC2=O)NC(=O)[C@@H](Cc2ccccc2)NC(=O)[C@H](CC(=O)O)NC(=O)CNC1=O [indium-111 labelled]	–	–	female athymic nude mice, blood	intravenous, 3 µCi, 0.5 h, U-87 MG glioma xenograft	–	tissue uptake	1.12 ± 0.08 %ID/g
CC[C@H](C)[C@@H]1NC(=O)[C@@H](NC(=O)[C@H](CCC(=O)O)NC(=O)[C@H](CCCNC(=N)N)NC(=O)CNC(=O)[C@H](CO)NC(=O)[C@H](CC(C)C)NC(=O)[C@H](CCCNC(=N)N)NC(=O)[C@@H](NC(=O)CNC(=O)[C@H](Cc2ccc(O)cc2)NC(=O)[C@@H]2CCCN2C(=O)[C@H](C)NC(=O)[C@H](C)NC(=O)[C@@H](N)CCCNC(=N)N)C(C)C)CSSC[C@@H](C(=O)N[C@H](C(=O)N[C@@H](Cc2ccccc2)C(=O)N[C@H](C(=O)N[C@@H](CO)C(=O)NCC(=O)NCC(=O)N[C@@H](CO)C(=O)N[C@@H](CCCNC(=N)N)C(=O)N[C@@H](Cc2c[nH]c3ccccc23)C(=O)O)[C@@H](C)O)[C@@H](C)CC)NC(=O)[C@H](C)NC(=O)[C@H](CCCNC(=N)N)NC1=O	RXFP3	ligand displacement	–	–	–	Ki	1.58 µM
C=CC[N+]12CN3CN(CN(C3)C1)C2	BAX (Homo sapiens, UniProt Q07812)	ligand displacement, FP	–	–	–	Ki	0.0541 µM
CCOC(=O)c1cc(Cc2ccccc2)cc2c1NCCC2NC(=O)C(N)Cc1c(C)cc(O)cc1C (stereo not drawn)	Oprd1	ligand displacement, radioligand	–	cell membranes	–	Ki	0.0037 µM
N=C(N)Nc1cccc(C(=O)NCC2(Nc3ccccc3)CCN(Cc3ccccc3)CC2)c1	NPFFR1 (Homo sapiens, UniProt Q9GZQ6)	cell-free assay	–	–	–	Ki	1.62 µM
CCN(Cc1ccccc1)C(=O)CCc1nc(CN2CCN(C(=O)Cc3ccc(OC)c(OC)c3)CC2)no1	–	mechanical withdrawal threshold, von Frey	mouse CCI model	20 mg/kg, dosing from day 11	–	onset day	11 days
CCCCCc1cc(O)c2c(c1)OC(C)(C)C1CCC(C)=CC21 (single isomer, unassigned; (-))	Cytochrome P450 1A2 (CYP1A2, Homo sapiens, UniProt P05177)	enzyme activity, inhibitor	human, liver microsomes	pH 7.4	–	IC50	5.2 µM
O=C1C(P(=O)(O)O)CCCN1O (stereo not drawn)	Gamma-enolase (ENO2, Homo sapiens, UniProt P09104)	enzyme activity, inhibitor	–	–	–	Ki	0.064 µM
OC[C@@H]1[C@@H](O)[C@H](O)[C@@H](O)[C@@H]2N[C@H]12	GAA (Homo sapiens, UniProt P10253)	enzyme activity, inhibitor	–	–	–	Ki	9.6 µM
CC[C@H](C)[C@@H]1NC(=O)[C@H](C(C)C)NC(=O)[C@H](C)NC(=O)[C@H](CCCNC(=N)N)NC(=O)[C@H]([C@@H](C)CC)NC(=O)[C@](C)(NC(=O)[C@H](CCC(=O)O)NC(=O)[C@H](CCCNC(=N)N)NC(=O)CNC(=O)[C@H](CS)NC(=O)[C@H](CC(C)C)NC(=O)[C@H](CCCNC(=N)N)NC(=O)[C@@H](NC(=O)CNC(=O)[C@H](Cc2ccc(O)cc2)NC(=O)[C@@H]2CCCN2C(=O)[C@H](C)NC(=O)[C@H](C)NC(=O)[C@@H](N)CCCNC(=N)N)C(C)C)CCCC=CCCCCCC[C@@](C)(C(=O)N[C@@H](CS)C(=O)NCC(=O)NCC(=O)N[C@@H](CO)C(=O)N[C@@H](CCCNC(=N)N)C(=O)N[C@@H](Cc2c[nH]c3ccccc23)C(=O)O)NC(=O)[C@H](Cc2ccccc2)NC1=O	RXFP3	ligand displacement	–	–	–	Ki	0.0661 µM
CCc1cc(Cc2ccccc2)cc2c1NCCC2NC(=O)C(N)Cc1c(C)cc(O)cc1C (stereo not drawn)	Oprd1	ligand displacement, radioligand	–	cell membranes	–	Ki	0.0019 µM
CC[C@H](C)[C@@H]1NC(=O)[C@H](CCOP(=O)(O)O)NC(=O)[C@H](Cc2ccccc2)NC(=O)CSC[C@@H](C(N)=O)NC(=O)[C@H](CC(=O)O)NC(=O)[C@H](CC(=O)O)NC(=O)[C@H](Cc2ccc(OP(=O)(O)O)cc2)NC1=O	PPM1D (Homo sapiens, UniProt O15297)	phosphatase activity, inhibitor, malachite green	–	added: ATM pS1981 peptide	–	Ki	2.9 ± 0.5 µM
CN1CCN(c2ccc3cnn(C(=O)c4cccc5ccccc45)c3c2)CC1	HTR6	ligand displacement, radioligand	–	cell membranes	–	Ki	1.28 µM
N[C@@H](Cc1ccccc1)P(=O)(O)O	PAL1 (Petroselinum crispum, UniProt P24481)	enzyme activity, inhibitor, absorbance	–	pH 8.8	–	Ki	0.66 µM
COC[C@@H](NC(C)=O)C(=O)NCc1ccc(N=[N+]=[N-])cc1	voltage-gated sodium channel	sodium current, whole-cell patch clamp	CAD	40 µM, 5 min washout, test potential -10 mV, added: UV irradiation	baseline: UV-irradiated cells without drug	current recovery	75%
COc1ccc2ccc3c(c2c1)C=[N+]1C2CCCCC2[N+]2=Cc4cccc(OC)c4[O][Au-]21[O]3.F[P-](F)(F)(F)(F)F (stereo not drawn)	Klebsiella pneumoniae glutathione reductase	competitive inhibitor	carbapenem-resistant	added: GSSG	–	Ki	1.5 µM

Excerpt of the above:
Compound	target or system	test	test system	conditions	how to read	quantity	value
N=C(N)Nc1cccc(C(=O)NCC2(Nc3ccccc3)CCN(Cc3ccccc3)CC2)c1	NPFFR1 (Homo sapiens, UniProt Q9GZQ6)	cell-free assay	–	–	–	Ki	1.62 µM
CCC(=O)N[C@H]1c2nc(CCc3ccccc3)cn2[C@H](CO)[C@@H](O)[C@@H]1O	human lysosomal hexosaminidase A/B	–	–	–	–	Ki	0.0027 ± 0.0004 µM
O=C1C(P(=O)(O)O)CCCN1O (stereo not drawn)	Gamma-enolase (ENO2, Homo sapiens, UniProt P09104)	enzyme activity, inhibitor	–	–	–	Ki	0.064 µM
C=CC[N+]12CN3CN(CN(C3)C1)C2	BAX (Homo sapiens, UniProt Q07812)	ligand displacement, FP	–	–	–	Ki	0.0541 µM
CC[C@H](C)[C@@H]1NC(=O)[C@H](CCOP(=O)(O)O)NC(=O)[C@H](Cc2ccccc2)NC(=O)CSC[C@@H](C(N)=O)NC(=O)[C@H](CC(=O)O)NC(=O)[C@H](CC(=O)O)NC(=O)[C@H](Cc2ccc(OP(=O)(O)O)cc2)NC1=O	PPM1D (Homo sapiens, UniProt O15297)	phosphatase activity, inhibitor, malachite green	–	added: ATM pS1981 peptide	–	Ki	2.9 ± 0.5 µM
